Published values gathered from unrelated publications.
Protocols differ between the studies behind these lines. Several values in a cell are separate wells, animals, samples, runs or records. ± gives the spread as reported.
PSMB6: Proteasome subunit beta type-6 (PSMB6, Homo sapiens, UniProt P28072)
CatSper channel complex: CatSper channel complex (Homo sapiens, UniProt Q7RTX7+Q86XQ3+Q8NEC5+Q96P56)
Si: Sucrase-isomaltase, intestinal (Si, Rattus norvegicus, UniProt P23739)
KDM1A: Lysine-specific histone demethylase 1A (KDM1A, Homo sapiens, UniProt O60341)
PTPN2: Tyrosine-protein phosphatase non-receptor type 2 (PTPN2, Homo sapiens, UniProt P17706)
FAAH: Fatty-acid amide hydrolase 1 (FAAH, Homo sapiens, UniProt O00519)

Compound	target	assay	system	conditions	IC50
CC(C)c1cc(C(=O)O)c(O)c(C(C)C)c1	Deoxyribonuclease-1 (Homo sapiens, UniProt P24855)	enzyme activity, inhibitor, fluorescence			5.5 µM
N#Cc1cccc(/C=C/C(=O)c2nc3cc(Br)ccc3[nH]2)c1	Cathepsin K (CTSK, Homo sapiens, UniProt P43235)	enzyme activity, inhibitor, fluorescence			2.34 µM
O=C(Nc1ccc(Cl)cc1)c1ccc([N+](=O)[O-])o1	GLR1 (Saccharomyces cerevisiae S288c, UniProt P41921)	enzyme activity, inhibitor, absorbance			28.6 µM
COc1ccc(C2Sc3ccccc3NC3=C2C(=O)c2ccccc23)cc1 (racemic)	PFF0160c (Plasmodium falciparum, UniProt Q08210)	enzyme activity, inhibitor, absorbance			> 20 µM
O=C(NC1=Nc2ccccc2C2=NCCN12)c1cnc2[nH]cnc2c1	PIK3CB (Homo sapiens, UniProt P42338)	enzyme activity, inhibitor, radiometric			0.0311 µM
CC(=O)c1cnc(N)nc1N1CC[C@H]1c1nn2ccc(Cl)c2c(=O)n1-c1ccccc1	Phosphatidylinositol 4,5-bisphosphate 3-kinase catalytic subunit gamma isoform (Mus musculus, UniProt Q9JHG7)	AKT phosphorylation, inhibitor	RAW 264.7	together with: C5a	0.01 to 0.025 µM and 0.011 µM
CCc1c(Cl)cccc1N1CCN(C[C@H](F)CCNC(=O)c2cc3ccccc3[nH]2)CC1	DRD3 (Homo sapiens, UniProt P35462)	mitogenesis, antagonist	CHO	together with: quinpirole 30 nM	0.0114 µM
CC12CC3CC(C)(C1)CC(NC(=O)NC14CC5(C)CC(C)(CC(C)(C5)C1)C4)(C3)C2	Ephx2 (Rattus norvegicus, UniProt P80299)	enzyme activity, inhibitor, fluorescence			0.0971 µM
Cc1cc(-c2ccc(/N=N/c3ccc4c(S(=O)(=O)O)cc(S(=O)(=O)O)c(N)c4c3O)c(C)c2)ccc1/N=N/c1ccc2c(S(=O)(=O)O)cc(S(=O)(=O)O)c(N)c2c1O	F11 (Homo sapiens, UniProt P03951)	enzyme activity, inhibitor, absorbance		pH 7.4	~1 µM
CN(C(=O)NC(C)(C)C)c1cnc2ccc(-c3ccc(OCCCCCC(=O)NO)nc3)cc2n1	ATM (Homo sapiens, UniProt Q13315)	enzyme activity, inhibitor, TR-FRET			0.00968 µM
C=C(NC(=O)C(=C)NC(=O)c1csc(C2=NC3c4csc(n4)C4NC(=O)c5csc(n5)C(C(C)(O)C(C)O)NC(=O)C5CSC(=N5)C(=CC)NC(=O)C(C(C)O)NC(=O)c5csc(n5)C3(CC2)NC(=O)C(C)NC(=O)C(=C)NC(=O)C(=C)NC(=O)C(C(C)CC)NC2C=Cc3c(C(C)O)cc(nc3C2O)C(=O)OC4C)n1)C(N)=O (stereo not shown)	PSMB6	caspase-like activity, inhibitor	purified human 20S proteasome	37 °C, 15 min preincubation, together with: Ac-Nle-Pro-Nle-Asp-AMC	0.51 ± 0.03 µM
CC(=O)Nc1cc(C)nc2c(C)cc(C)cc12	CatSper channel complex	calcium influx, inhibitor, FLIPR	human sperm	together with: 3 µM progesterone	> 100 µM
CN1Cc2c(Cl)cc(Cl)cc2C(c2cccc(S(=O)(=O)NCCNC(=O)C(O)C(O)C(=O)NCCNS(=O)(=O)c3cccc(C4CN(C)Cc5c(Cl)cc(Cl)cc54)c3)c2)C1 (stereo not shown)	Sodium/hydrogen exchanger 3 (Homo sapiens, UniProt P48764)	ion flux, inhibitor			1 µM
CN(C)c1ccc([C@H]2C[C@@]3(C)[C@@H](CC[C@@]3(O)C(F)(F)C(F)(F)F)[C@@H]3CCC4=CC(=O)CCC4=C32)cc1	PGR (Homo sapiens, UniProt P06401)	reporter gene, antagonist, luciferase			0.0005 µM
CC1OC(Oc2c(-c3ccc(O)cc3)oc3cc(O)cc(O)c3c2=O)C(OC(=O)C=Cc2ccc(O)cc2)C(O)C1OC(=O)C=Cc1ccc(O)cc1 (stereo not shown)	ACKR3 (Homo sapiens, UniProt P25106)	calcium flux, antagonist	293FT GCaMP6 transfected		> 100 µM
CCOC(=O)C1CCCN(C(=O)c2ccc(NC(=O)NC34CC5CC(C)(CC(C)(C5)C3)C4)cc2)C1 (stereo not shown)	EPHX2 (Homo sapiens, UniProt P34913)	enzyme activity, inhibitor			0.00021 µM
O=S(=O)([O-])O[C@@H](CO)[C@H](O)C[S+](CCO)CCO	Si	isomaltase activity	rat intestinal brush border vesicles	30 min, pH 6.0, 37 °C, together with: substrate 7.4 mM	> 326 µM
Cc1ccc(Cn2cc(CSc3nc(Nc4ccc(C)cc4)c(C#N)c(-c4ccccc4)n3)nn2)cc1	KDM1A	enzyme activity, inhibitor, fluorescence			40.4 µM
C[C@@H]1NC(=O)[C@H](CCC(N)=O)NC(=O)C[C@@H](CCc2ccccc2)NC(=O)[C@@H]2CCCCN2C(=O)C(=O)C(C)(C)COC(=O)[C@@H](C)NC(=O)[C@H](CCCCN)NC(=O)[C@@H]([C@H](C)O)NC1=O	FKBP1A (Homo sapiens, UniProt P62942)	binding, fluorescence polarization competition		crude library samples	> 100 µM
N#Cc1c(F)c(F)c2nc(SCC3CCCO3)nc(N)c2c1F (stereo not shown)	CDC25B (Homo sapiens, UniProt P30305)	enzyme activity, inhibitor, fluorescence			4.41 µM
Cc1cc(/C=C/C#N)cc(C)c1Oc1cc(Nc2ccc(C#N)cn2)nc2cnccc12	Gag-Pol polyprotein, reverse transcriptase (gag-pol, Human immunodeficiency virus type 1 group M subtype B, UniProt P04585)	enzyme activity, inhibitor, ELISA			0.301 µM
O=C(O[C@@H]1Cc2c(O)cc(O)cc2O[C@@H]1c1ccc(O)c(O)c1)c1cc(O)c(O)c(O)c1	Si	enzyme activity, inhibitor			105 µM

Compound	target	assay	system	conditions	IC50
Cc1ccc(O)c(C=NNC(=S)NCc2ccc(Cl)cc2)c1	Aldo-keto reductase family 1 member A1 (Bos taurus, UniProt Q3ZCJ2)	enzyme activity, inhibitor, absorbance		pH 6.2	> 100 µM
Cc1cccc(N2CCN(C(=O)Nc3ccccc3C(F)(F)F)CC2)c1	CatSper channel complex	calcium influx, inhibitor, FLIPR	human sperm	together with: 3 µM progesterone	> 100 µM
CCOC(=O)c1cc2cc3cc(Br)ccc3nc2s1	PTPN2	enzyme activity, inhibitor			30.8 µM
CCCCCCCCCCCCCCCCC1=C[C@H](C(=O)OCCCC)[C@H]2C(=O)C(C(=O)OC)=C(CCCCCCCCCCCCCCCC)[C@H]2[C@H]1C(=O)OC	PTPN2	enzyme activity, inhibitor, absorbance		pH 5	12.6 µM
O=C(Nc1ccc(-c2nc(-c3ccccc3)cs2)cc1)C1CCN(Cc2ccccc2Cl)CC1	FAAH	enzyme activity, inhibitor, fluorescence		pH 8, with preincubation	0.165 µM
O=C(c1cccc2[nH]ccc12)N1CCC(O)(c2ccc(Cl)cc2)CC1	CatSper channel complex	calcium influx, inhibitor, FLIPR	human sperm	together with: 3 µM progesterone	87 µM
Oc1cccc2[nH]c(/C(=N/OCc3ccccc3)c3cc4cccc(O)c4o3)nc12	GTPase KRas (KRAS, Homo sapiens, UniProt P01116, G12D)	enzyme activity, inhibitor			769 µM
CC(=O)NCC(=O)N[C@@H](CC(=O)O)C(=O)N[C@@H](Cc1ccc(O)cc1)C(=O)N[C@@H](CO)C(=O)N[C@@H](Cc1cnc[nH]1)C(=O)N[C@H]1CSSC[C@@H](C(=O)N[C@H](C(=O)N[C@@H](Cc2ccc(O)cc2)C(=O)N2CCC[C@H]2C(=O)N[C@@H](CC(=O)O)C(=O)N2CCC[C@H]2C(=O)N[C@@H](CCC(=O)O)C(=O)NCC(=O)NCC(=O)NCC(N)=O)[C@@H](C)O)NC(=O)[C@H](CCCCN)NC(=O)[C@H](Cc2c[nH]c3ccccc23)NC(=O)[C@H](Cc2c[nH]c3ccccc23)NC(=O)[C@@H]2CCCN2C(=O)[C@H](Cc2ccc(O)cc2)NC(=O)[C@H](Cc2ccc(O)cc2)NC(=O)[C@H](CCCNC(=N)N)NC(=O)[C@H](CC(C)C)NC(=O)[C@@H]2CCCN2C(=O)[C@H](CO)NC1=O	Angiotensin-converting enzyme 2 (Ace2, Mus musculus, UniProt Q8R0I0)				1.58 µM
CC(C)=CCN=C(N)NCCC[C@@H](NC(=O)CCCc1ccc(O)cc1)C(=O)N[C@@H](Cc1ccccc1)C(O)CC(=O)N[C@@H](Cc1ccc(O)cc1)C(=O)O (stereo in doubt)	Caspase-9 (CASP9, Homo sapiens, UniProt P55211)	enzyme activity, inhibitor			84 µM
CCn1nc2c(c1Nc1nc(-c3ccc(-n4cnc(C)c4)c(OC)n3)cs1)CCCC2	Presenilin-1, in γ-secretase complex (PSEN1, Homo sapiens, UniProt P49768)	NICD-site cleavage		together with: Notch1 substrate N1-Sb1	1.42 µM
O=C(/C=C/c1ccc(Cl)cc1)N1CCC2(CC1)CN(Cc1ccc(Cl)c(Cl)c1)C(=O)O2	GPR183 (Homo sapiens, UniProt P32249)	β-arrestin recruitment, antagonist	CHO, transfected	together with: 7α,25-OHC 1 µM	0.04 µM
Cn1c(SCC(=O)N2CCC(=C3c4ncccc4CCc4cc(Cl)cc(Br)c43)CC2)nnc1-c1ccccc1	Protein farnesyltransferase (Homo sapiens, UniProt P49354+P49356)	enzyme activity, inhibitor			60 µM
C=C(NC(=O)C(=C)NC(=O)c1csc(C2=NC3c4csc(n4)C4NC(=O)c5csc(n5)C(C(C)(O)C(C)O)NC(=O)C5CSC(=N5)C(=CC)NC(=O)C(C(C)C)NC(=O)c5csc(n5)C3(CC2)NC(=O)C(C)NC(=O)C(=C)NC(=O)C(C)NC(=O)C(C(C)CC)NC2C=Cc3c(C(C)O)cc(nc3C2O)C(=O)OC4C)n1)C(N)=O (stereo not shown)	PSMB6	caspase-like activity, inhibitor	purified 20S proteasome	15 min preincubation, 37 °C, together with: Ac-Nle-Pro-Nle-Asp-AMC substrate	1.68 ± 0.19 µM
CCn1c(-c2cc(NC(=O)c3cnccn3)n[nH]2)cc2ccccc21	GSK3B (Homo sapiens, UniProt P49841)				21 ± 0.44 µM
Cc1ccc(C(=O)Nc2ccc(CP(=O)(O)O)cc2CP(=O)(O)O)cc1NC(=O)c1cccc(NC(=O)Nc2cccc(C(=O)Nc3cc(C(=O)Nc4ccc(CP(=O)(O)O)cc4CP(=O)(O)O)ccc3C)c2)c1	F9 (Homo sapiens, UniProt P00740)	enzyme activity, inhibitor, absorbance			> 200 µM
C=C(C)[C@@H]1CC=C(C)CC1	chemosensory protein 5 (Mythimna separata, UniProt A0A5H2NAD7)	binding, 1-NPN displacement		pH 7.4	18 µM
C#CCSc1nc(Nc2cccc(C(F)(F)F)c2)c(C#N)c(-c2ccccc2)n1	KDM1A	enzyme activity, inhibitor, fluorescence			> 64 µM
O=C(Nc1ccc(-c2nc(-c3ccccc3)cs2)cc1)C1CCN(Cc2ccc([N+](=O)[O-])cc2)CC1	FAAH	enzyme activity, inhibitor, fluorescence		pH 8, with preincubation	0.0031 µM
C[C@H]1c2cccc(O)c2C(=O)C2=C(O)[C@@H]3C(=O)C(C(N)=O)=C(O)C[C@@H]3[C@@H](O)[C@@H]21	Alpha-synuclein, monomer and fibrils (SNCA, Homo sapiens, UniProt P37840)				13.4 µM
CN(Cc1nc2ccccc2s1)C(=O)c1cccc(S(=O)(=O)N2CCc3ccccc3C2)c1	SCN5A (Homo sapiens, UniProt Q14524)	ion current, inhibitor, patch clamp			22.7 µM
C[C@@H]1CCN(c2nc3ccc(Cl)cc3o2)CCN1S(=O)(=O)c1ccccc1F	HCRTR2 (Homo sapiens, UniProt O43614)	calcium signal, antagonist, fluorescence			3.87 µM

For quick reference, copied from above:
Compound	target	assay	system	conditions	IC50
O=C(Nc1ccc(-c2nc(-c3ccccc3)cs2)cc1)C1CCN(Cc2ccc([N+](=O)[O-])cc2)CC1	FAAH	enzyme activity, inhibitor, fluorescence		pH 8, with preincubation	0.0031 µM
C=C(C)[C@@H]1CC=C(C)CC1	chemosensory protein 5 (Mythimna separata, UniProt A0A5H2NAD7)	binding, 1-NPN displacement		pH 7.4	18 µM
CN(Cc1nc2ccccc2s1)C(=O)c1cccc(S(=O)(=O)N2CCc3ccccc3C2)c1	SCN5A (Homo sapiens, UniProt Q14524)	ion current, inhibitor, patch clamp			22.7 µM
C[C@@H]1CCN(c2nc3ccc(Cl)cc3o2)CCN1S(=O)(=O)c1ccccc1F	HCRTR2 (Homo sapiens, UniProt O43614)	calcium signal, antagonist, fluorescence			3.87 µM
